{"data": "Measurements from different studies", "note": "Parts stem from different laboratories: compare values within a part only."}
{"data": "Sample 1", "target": "PABPC1L2, full length, GST fusion (mouse, UniProt A0ABA7IW68)", "method": "RNAcompete", "molecule type": "RNA", "medium": "in vitro", "concentration": "20 nM", "notes": "7-mer, probes averaged, single round", "relative to": "mean of 7-mers", "reading": "higher = stronger binding", "Construct (chain)": "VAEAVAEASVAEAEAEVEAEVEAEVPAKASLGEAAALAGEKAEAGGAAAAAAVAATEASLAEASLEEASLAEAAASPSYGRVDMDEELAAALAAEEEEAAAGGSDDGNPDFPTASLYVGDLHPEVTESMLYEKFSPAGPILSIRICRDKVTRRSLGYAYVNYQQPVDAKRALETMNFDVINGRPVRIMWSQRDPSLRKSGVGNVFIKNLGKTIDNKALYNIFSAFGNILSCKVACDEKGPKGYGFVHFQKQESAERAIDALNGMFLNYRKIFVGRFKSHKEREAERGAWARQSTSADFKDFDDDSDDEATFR"}
{"Oligonucleotide": "UUUACUG", "7-mer Z-score": 0.0388}
{"Oligonucleotide": "UUGGGGG", "7-mer Z-score": 0.224}
{"Oligonucleotide": "UACGCAG", "7-mer Z-score": -0.182}
{"Oligonucleotide": "CGUGAGA", "7-mer Z-score": -0.238}
{"Oligonucleotide": "UAUCUGA", "7-mer Z-score": -0.122}
{"Oligonucleotide": "CGUACAU", "7-mer Z-score": -0.115}
{"Oligonucleotide": "CCCUGAU", "7-mer Z-score": -0.229}
{"Oligonucleotide": "UGGUAUG", "7-mer Z-score": -0.0591}
{"data": "Sample 2", "target": "RING finger protein unkempt homolog, zinc fingers 1-6, GST-SBP tag (UNK, Homo sapiens, UniProt Q9C0B0, residues 30-357)", "method": "RNA Bind-n-Seq", "molecule type": "RNA", "medium": "in vitro", "concentration": "not given", "notes": "RNA with constant flanks, human and mouse sites, ends assumed", "relative to": "input RNA pool", "reading": "higher = stronger binding", "Residues (chain)": "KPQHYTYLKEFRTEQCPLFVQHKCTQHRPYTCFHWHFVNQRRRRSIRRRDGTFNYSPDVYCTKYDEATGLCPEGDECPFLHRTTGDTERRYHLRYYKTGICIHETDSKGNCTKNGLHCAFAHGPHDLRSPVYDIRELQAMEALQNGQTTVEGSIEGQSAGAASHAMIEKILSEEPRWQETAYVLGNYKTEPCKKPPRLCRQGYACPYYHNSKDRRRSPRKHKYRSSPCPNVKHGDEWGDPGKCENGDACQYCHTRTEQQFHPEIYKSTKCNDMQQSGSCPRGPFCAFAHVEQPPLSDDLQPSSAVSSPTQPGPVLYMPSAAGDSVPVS"}
{"Oligonucleotide": "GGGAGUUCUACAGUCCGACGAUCCAGGCGACUGAGAUGCUGUACAUGCGUCUGGACACGAUGAGUACCACGUGUGUUGACAGGUUUAUUAAUUGGUUUUCUCAUCAUCUAAGUAAUUUUCAAUUCCGUUGGAGCUGGGAAGAUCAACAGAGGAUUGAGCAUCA", "bound/input enrichment [ratio]": 0.372}
{"Oligonucleotide": "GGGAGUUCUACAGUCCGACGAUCAGUAAAAAGCAAGGUUAUCCAGCACUUCAUGCAUUCAGUACAUUCUUCUAUCCUAAGCUAAAGUCUGGAGGUUACCAAGCAGUGAAAAGAUGGACCAAAGGGGUAAAUCUCUUCGAACAACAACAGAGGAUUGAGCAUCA", "bound/input enrichment [ratio]": 0.169}
{"Oligonucleotide": "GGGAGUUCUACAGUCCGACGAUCGCUACAGGGCUCCUGGUGCUGAAGGACUUGGGCAUUCAGGUGGACCGCUACAUUGCCUCGGAGGUGUGUGAGGACUCCAUCACGGUGGGCAUGGUGCGGCACCAGGGGAAGAUCAUGUACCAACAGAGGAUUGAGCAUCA", "bound/input enrichment [ratio]": 0.0871}
{"Oligonucleotide": "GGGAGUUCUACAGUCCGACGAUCGGACAUCUGUCAAAUUGUUAUGUUCCUGUGAAACAAGUGAACACUCUGAUACACUUCAUCUGCUUGUACAUCUGUAUGAUAGAGAAAUGUAAAUAUGUUAAUCCAAGCAAUGUGUCACUUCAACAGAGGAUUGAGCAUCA", "bound/input enrichment [ratio]": 0.235}
{"Oligonucleotide": "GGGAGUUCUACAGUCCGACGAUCCUCAGAAGAGCCAAAUCGAAAAAUGGGGGGAGAUCCUUGAGAGAAAGGCUAGAAAAAAUCGGUUUGAAUUUACCCGCGGGCAGGCGCAAAGCAGCAAAUGUCACGUUACUCACCUCACUGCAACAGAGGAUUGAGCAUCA", "bound/input enrichment [ratio]": 0.144}
{"Oligonucleotide": "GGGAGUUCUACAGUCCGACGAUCAUCUUGGCCUUUCUGUGGAGGGAGUUAAGAACUAAAAUACCAAAAAUCACUUUAUUUCUUUUAAGACAAUUAUCUGGCCUAAACCCAGAAAGCAGUACUGGAGCAAAAGCCCAGUGUAUACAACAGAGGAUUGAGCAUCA", "bound/input enrichment [ratio]": 0.816}
{"Oligonucleotide": "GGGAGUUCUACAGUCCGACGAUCCAAAGGAGUCUCGAAGAGUCUCAAGGGAAAAUAGCCCAACUGGAGGGAAAACUUGUUUCAAUAGAGAAAGAAAAGAUUGAUGAAAAAUCUGAAACAGAAAAACUCUUGGAAUACAUCGAACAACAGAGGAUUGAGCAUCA", "bound/input enrichment [ratio]": 0.373}
{"Oligonucleotide": "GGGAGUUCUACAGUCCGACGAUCGGAGAAUGAAUCCUUUGGAUACUUUCAAGGACAUUCAAAUGUGAAAAUGAAUUUUUUACAACUAGAAGUAUUUAUAAUAAAAGACCAAACUUAUUUUUGUAAAUGAACCCAUAUGCUUUACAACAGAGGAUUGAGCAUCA", "bound/input enrichment [ratio]": 1.77}
{"data": "Further values, each from its own experiment"}
{"Molecule": "N#Cc1c(Oc2ccc(F)c(NC(=O)Cc3cccc(C(F)(F)F)c3)c2)ccc2nc(NC(=O)C3CC3)sc12", "test": "necroptosis, inhibitor, CCK-8", "system": "L929, mouse", "setting": "together with: TNF-α", "quantity": "EC50", "value": "3.86 µM"}
{"Molecule": "PhoQ, residues 284 288 289 292 302 303 TYGVAM", "tested on": "PhoP, residues 12 14 15 18 19 LHATL (Escherichia coli, UniProt P23836)", "test": "Sort-seq, refers to: YFP reporter", "system": "E. coli", "setting": "PhoQ-PhoP variant library, together with: 10 µM Mg2+", "how to read": "relative to: high Mg2+ state, higher = stronger signaling", "quantity": "fold induction", "value": 8.42}
{"note": "Repeated from above (sample 2):"}
{"Oligonucleotide": "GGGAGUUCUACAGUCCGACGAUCAGUAAAAAGCAAGGUUAUCCAGCACUUCAUGCAUUCAGUACAUUCUUCUAUCCUAAGCUAAAGUCUGGAGGUUACCAAGCAGUGAAAAGAUGGACCAAAGGGGUAAAUCUCUUCGAACAACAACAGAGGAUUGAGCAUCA", "bound/input enrichment [ratio]": 0.169}
